Measurements gathered from unrelated publications.
Each numbered part is a random draw from the data of one study; scales do not carry over between parts.

Series 1
Target: Probable WRKY transcription factor 50, DNA-binding domain (WRKY50, Arabidopsis thaliana, UniProt Q8VWQ5, residues 99-173)
Method: DNA-protein interaction ELISA
Molecule type: double-stranded DNA, one strand shown
Medium: in vitro, bacterial lysate
Concentration: not given
Notes: whole dsDNA probe, crude lysate protein
Baseline: highest signal in screen
Reading: higher = stronger binding
Target sequence (chain): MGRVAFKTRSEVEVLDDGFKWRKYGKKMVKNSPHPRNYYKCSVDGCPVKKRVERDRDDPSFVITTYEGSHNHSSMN
Oligonucleotide	relative absorbance
AAAAAATTAGACGCTACACTTACGGTAAAA	10.8 % of maximum
AAAAAAGTACGGATGCCCGCGCGTATAAAA	35.4 % of maximum
AAAAAAGTCTAAGGACTTATAGCTGTAAAA	82.2 % of maximum
AAAAAAATTTTTAGTTTTAATTTTGGAAAA	22.4 % of maximum
AAAAAACTCGCGCTTGCATCTGTGCGAAAA	11.1 % of maximum
AAAAAACCCATCCTTCGTTCCATCGTAAAA	34.6 % of maximum
AAAAAAGGCCGTTGGACCTCGGTCTAAAAA	17.9 % of maximum

Series 2
Target: Centromere-binding protein 1, full length, N-terminal tag (CBF1, Saccharomyces cerevisiae, UniProt P17106, residues 1-351)
Chain of UniProt P17106 (whole entry, looked up): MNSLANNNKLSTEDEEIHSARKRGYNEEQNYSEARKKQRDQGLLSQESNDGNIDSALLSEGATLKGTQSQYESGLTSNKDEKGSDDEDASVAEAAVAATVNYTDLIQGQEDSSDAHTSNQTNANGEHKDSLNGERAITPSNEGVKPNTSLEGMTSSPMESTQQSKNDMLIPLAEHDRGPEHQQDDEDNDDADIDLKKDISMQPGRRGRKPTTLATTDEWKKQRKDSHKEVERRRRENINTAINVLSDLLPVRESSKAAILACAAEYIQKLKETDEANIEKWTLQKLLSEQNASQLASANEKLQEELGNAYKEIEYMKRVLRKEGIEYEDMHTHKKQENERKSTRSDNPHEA
Method: protein-binding microarray
Molecule type: double-stranded DNA, one strand shown
Medium: in vitro
Concentration: 0.8 µM
Notes: whole 60-bp probe, no competitor
Reading: higher = stronger binding
All sequences stand within: … GTCTTGATTCGCTTGACGCTGCTG
Oligonucleotide	fluorescence intensity
CTAAAAGAAAAAAGTCACGCAAAGTTGCAAACATTC	596 a.u.
CTATTAACAAGAAACGTGATGGTACACACAAAGTTC	1510 a.u.
CTATATAGAAGTGACAACGTGTTTTTTCGTTTTTTC	592 a.u.
GAATAATGTGCTGCTCAGGTGCCGCGTATATCATAG	659 a.u.
GAAGGTAGTGGCGGTGGTGGTGGCGGCATCCCTTAG	493 a.u.
TGTACGAAGCTATCACACGTGAATATAGTAGTTAGG	2170 a.u.

Series 3
Target: RING finger protein unkempt homolog, zinc fingers 1-6, GST-SBP tag (UNK, Homo sapiens, UniProt Q9C0B0, residues 30-357)
Chain of UniProt Q9C0B0 (30-357, looked up): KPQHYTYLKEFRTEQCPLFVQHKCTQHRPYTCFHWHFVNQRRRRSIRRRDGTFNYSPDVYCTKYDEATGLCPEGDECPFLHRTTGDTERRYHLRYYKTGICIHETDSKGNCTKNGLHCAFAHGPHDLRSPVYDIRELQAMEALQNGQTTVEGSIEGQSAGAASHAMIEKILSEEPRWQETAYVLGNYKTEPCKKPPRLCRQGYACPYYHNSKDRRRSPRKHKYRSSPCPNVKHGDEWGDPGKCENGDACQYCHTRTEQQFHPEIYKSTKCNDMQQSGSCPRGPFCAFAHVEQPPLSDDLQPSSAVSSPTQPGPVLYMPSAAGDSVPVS
Method: RNA Bind-n-Seq
Molecule type: RNA
Medium: in vitro
Concentration: not given
Notes: RNA with constant flanks, human and mouse sites, ends assumed
Baseline: input RNA pool
Reading: higher = stronger binding
All sequences stand within: GGGAGUUCUACAGUCCGACGAUC … CAACAGAGGAUUGAGCAUCA
Oligonucleotide	bound/input enrichment [ratio]
UCAAAAUUAUGGCAUCGUCAAAGCAUUGUGGUGUCUUUUUUACUGCUGCUUGCUGUGCUUAUAGCUACGUAUUAUGUUGAAGGAGUGCAUCAACAGUAUGUGCAACGUAUAGAGAAACAG	0.453
CCACCUCCACCGCCACCUCCACCACCUCCACCACCACCACCACAAUCCCUGGAAUUAUUAUUACUCCCAGUUCCUAAGGGAAGAGUUUCUAAACCCUCCAAUUCAGCCUCAGAAGAGGAA	0.661
UGGCCAGAACUAAAGGAGUCCAUUCCAGUGAUUAAUGGAAGAGAUUUACAGAACCCUAUUAUUGUUCAACUUUGUGAUCAGUGGGAUAAUCCAGCACCGGUACAACAUGUUAAAAUAAGU	0.173
GUCUCGGCGACCUGGAGCGGCCGCGCUUGCGGAGCCGUCACCAUGCCCCUGGCUAGAGAUCUGUUACACCCUUCCUUGGAGGAGGAGAAGAAAAAACAUAAGAAGAAACGGCUGGUUCAG	0.342
GUUCUUGACCCAUUGAUUGUAUCUGCUGGAAGAAGUCAUCUGGGCCUGUUGGGUUGGUAUCAGAUCAGGGGAUUAUGCAUCCAGCCCCUGGCCCCUUUAAUCUAUUUGCCUCUUUUUAAA	0.326
ACUAUUGUUAAAAUGAACUGUUGCUAUUGUGAGAUGGAUUUCCUUUCGAAUGGCACUACCUUAGGGACAUUCUAGUAUUGCUUCUAUUGUUUGGGCAUUGUGGAUAAUGUACAGAUUUAA	0.372
GACUUGGUACACUUUGAUUUUAUGGACCCACCAGCUCCUGAAACUCUGAUGAGAGCCCUAGAACUUUUGAAUUAUUUGGCUGCUUUAAAUGAUGAUGGAGAUCUGACUGAAUUGGGAUCC	21.2
UUAAAAUUGAAUAAAAGGAAACUUGCAGGUCAUCAGGAGACUUCUACCAAAAGUAGUGAGACUGGAUCCACAAAAGAUAAUUUUAUACAAAAUAAUCCUUGUAAUAGUAAUCCUGAGAAG	0.36

Mixed results
Substance	target	assay	system	setting	scale	endpoint	value
PhoQ, residues 284 288 289 292 302 303 DDMDFR	PhoP, residues 12 14 15 18 19 LQHIR (Escherichia coli, UniProt P23836)	Sort-seq, item: YFP reporter	E. coli	PhoQ-PhoP variant library, with: 10 µM Mg2+	baseline: high Mg2+ state, higher = stronger signaling	fold induction	0.679
